Measured values collected from several papers.
“And” joins repeats or separate records; there may be more than shown. Numbers after ± are the reported error. In brackets after ≈: the same amount, converted by molar mass.

| Structure (SMILES) | assay | test system | conditions | scale | endpoint | result |
| --- | --- | --- | --- | --- | --- | --- |
| COc1ccc([C@@H](O)c2cc(-c3ncnc4cc(N5CCOCC5)ccc34)c(F)cc2Cl)nn1 |  | locally advanced rectal cancer patients | 250 mg, together with: capecitabine and radiotherapy |  | drug-related proctitis incidence | 67% |
| CCc1c(-c2ccccc2)c(-c2ccccc2)nn1-c1ccccc1-c1cccc(OCC(=O)O)c1 |  | Sprague-Dawley rat, large intestine | oral, 10 mg/kg, 4 h |  | concentration | 1520 ng/g and 1950 ng/g |
| Cc1cc(C)c(CNC(=O)c2cc(Cl)c3c(c2C)O[C@@](C)([C@H]2CC[C@H](N(C)C)CC2)O3)c(=O)[nH]1 | radiochromatography | human, feces | oral, 200 mg | relative to: dose | fecal excretion | 63.6% and 67.4% and 50% and 51.6% |
| CCc1ccc(C(=O)Oc2ccc(C#N)c(F)c2)cc1 |  | Sprague-Dawley rat, female, placenta | 5000 ng/mL in perfusate, 50 (unit not given), high dose, mixture of 21 LCMs |  | median placental accumulation | 24.7 ng/g |
| C[C@@H](N)C1CCN(S(=O)(=O)c2cccc3cnccc23)CC1 |  | healthy volunteers | oral, 75 mg, single ascending dose, fasted |  | incidence of syncope | 0% |
| O=C1CCc2ccc(OCCCCN3CCN(c4cccc(Cl)c4Cl)CC3)cc2N1 |  | CYP2D6 ultrarapid metabolizers | concentration not given, genotype-based phenotype, long-acting oral or depot |  | extrapyramidal symptom frequency | 10% |
| CCc1cc(C(=O)NC)c2nccc(N3CCc4c(cc(Cn5ccnc5)cc4-c4cn(C)nc4C(F)(F)F)C3=O)c2c1 |  | Sprague Dawley rat | oral, 50 mg/kg once daily, day 2, 7-day toxicology study | relative to: day 1 | body weight change | 2% |
| O=C(N[C@H](Cc1c[nH]c2ccccc12)C(=O)Nc1ccncc1)c1ccc(N2CCN(c3ccc(F)cc3F)CC2)cc1F |  | Swiss Webster mouse, female, muscle | oral, 50 mg/kg, 2 h, 20% Kolliphor vehicle |  | concentration | 11.5 µM |
| Cn1cc(Nc2nccc(-c3ccc4c(c3)CN(C3COC3)CC[C@H]4NC(=O)c3cn(C(C)(C)C)nn3)n2)cn1 |  | human, whole blood | 300 mg twice daily, day 14 | relative to: pre-dose baseline | CD4+ T cell count change | -5.15% |
| CSc1cc(C)nc(SC)c1NC(=O)CN1CCN(CCSc2nc3ccccc3[nH]2)CC1 |  | mouse Crl:CD1 (ICR), female, plasma | intranasal, 50 µL of 3.24 mg/mL solution, daily for 7 days, 120 min, 0.01 N HCl solution vehicle |  | concentration | 5.8 ng/mL |
| CCO |  | healthy Chinese men | 0.5 g/kg, supine or semi-supine, together with: placebo |  | AUEC(0-4 h) diastolic BP | -26 ± 21.3 h·mmHg |
| CC(C)(C(=O)N1CCOc2c(C#N)cncc2C1)C(F)F | measured: abnormal urine odour | human, both sexes | oral, 15 mg twice daily, 14 days, multiple ascending dose |  | subjects with TEAE | 0% |
| COc1ccc(NC(=O)CN2CCOCC2)c([N+](=O)[O-])c1 |  | aqueous buffer | pH 7.4 |  | thermodynamic solubility | 157 µM (≈ 46.5 µg/mL) |
| N#CC1CCN(c2nc(-c3ccccn3)nc3ccccc23)CC1 |  | Japanese Pharmacopoeia disintegration test solution 2 | pH 6.8 |  | kinetic solubility | 74 µg/mL (≈ 235 µM) |
| CN(C(=O)n1cnc(-c2cccnc2)c1)[C@H]1CC[C@H](O)CC1 |  | Wistar rat, pons | oral, 10 mg/kg of BIA 10-2474, 4 h, single dose |  | concentration | 32 ± 7.9 ng/g |
| COC(=O)c1ccc2c(c1)NC(=O)/C2=C(\Nc1ccc(N(C)C(=O)CN2CCN(C)CC2)cc1)c1ccccc1 |  | healthy volunteers, plasma | oral, 150 mg single dose, alone |  | AUCinf | 186 ng·h/mL |
| CCN1/C(=C/C(C)=O)Sc2ccc(F)cc21 |  | cynomolgus monkey | oral, 30 mg/kg, 0.5 h post-dose |  | PR interval | 90 ± 3 ms |
| O=C(Nc1nc2cccc(-c3ccc(CN4CCS(=O)(=O)CC4)cc3)n2n1)C1CC1 | measured: somnolence | rheumatoid arthritis patients | oral, 150 mg once daily, 4 weeks, any relatedness |  | treatment-emergent adverse events | 0% |
| Cl.[2H]C([2H])([2H])CC(=O)c1cnc(NC(=O)C2CC2)cc1Nc1cccc(-c2ncn(C([2H])([2H])[2H])n2)c1OC | geometric mean | human | oral, 5 mg single dose, fasted, liquid |  | elimination rate constant | 2.22e-05 s⁻¹ |
| c1csc(CNc2cc[nH]n2)c1 | alkaline comet | Hsd:ICR(CD-1) mice, female, liver | oral, 1000 mg/kg/day, 3 days |  | tail DNA | 5.19% |

Excerpt of the above:
| Structure (SMILES) | assay | test system | conditions | scale | endpoint | result |
| --- | --- | --- | --- | --- | --- | --- |
| c1csc(CNc2cc[nH]n2)c1 | alkaline comet | Hsd:ICR(CD-1) mice, female, liver | oral, 1000 mg/kg/day, 3 days |  | tail DNA | 5.19% |
| CCN1/C(=C/C(C)=O)Sc2ccc(F)cc21 |  | cynomolgus monkey | oral, 30 mg/kg, 0.5 h post-dose |  | PR interval | 90 ± 3 ms |
